Experimental data collected from several papers.
Every numbered part comes from another study and shows a few of its results, in no order.

Study 1 — method: RNAcompete; form: RNA; sample: in vitro; concentration: 20 nM; setting: 7-mer, probes averaged, single round; relative to: mean of 7-mers; reading: higher = stronger binding
Target: PABPC1L2, full length, GST fusion (mouse, UniProt A0ABA7IW68)
Residues (chain): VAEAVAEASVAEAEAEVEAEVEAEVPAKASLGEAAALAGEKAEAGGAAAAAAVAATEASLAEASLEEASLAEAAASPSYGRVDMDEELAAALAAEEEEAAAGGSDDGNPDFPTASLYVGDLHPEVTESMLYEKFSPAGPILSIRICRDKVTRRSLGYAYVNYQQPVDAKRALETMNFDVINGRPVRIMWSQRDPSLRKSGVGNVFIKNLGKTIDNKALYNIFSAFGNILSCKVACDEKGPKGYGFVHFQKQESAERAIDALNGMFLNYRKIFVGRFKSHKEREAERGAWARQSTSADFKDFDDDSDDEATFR
Strand	7-mer Z-score
AUGAUCG	-0.15
GCAUACA	0.142
UGGGUCU	-0.197
CGCCCCU	-0.371
UGACGGC	-0.0138
GAGUCGU	-0.45
GUCGGUA	-0.00833
ACUUUCG	-0.291
AGUCACA	0.00798
CAGAACC	-0.112
GCGUAGA	0.191
UCAUCAC	-0.347
AGUAGAG	-0.0391
GUCACAU	-0.128
UCGACUG	-0.2
UUCCCAC	-0.445
UGUACCG	-0.257
UUACAAA	1.36
UCAAGGC	-0.164
CCUCACG	-0.273
CCGUGAG	-0.34
UGUAGCG	-0.079
AUCGGAA	0.149
GCGUCGG	-0.32
GCCGGAA	0.177

Study 2 — method: universal PBM; form: double-stranded DNA, one strand shown; sample: in vitro; concentration: 600 nM; reading: higher = stronger binding
Target: Sal-like protein 4, full length isoform A (SALL4, Homo sapiens, UniProt Q9UJQ4, residues 1-1053)
UniProt Q9UJQ4, sequence (whole entry, looked up): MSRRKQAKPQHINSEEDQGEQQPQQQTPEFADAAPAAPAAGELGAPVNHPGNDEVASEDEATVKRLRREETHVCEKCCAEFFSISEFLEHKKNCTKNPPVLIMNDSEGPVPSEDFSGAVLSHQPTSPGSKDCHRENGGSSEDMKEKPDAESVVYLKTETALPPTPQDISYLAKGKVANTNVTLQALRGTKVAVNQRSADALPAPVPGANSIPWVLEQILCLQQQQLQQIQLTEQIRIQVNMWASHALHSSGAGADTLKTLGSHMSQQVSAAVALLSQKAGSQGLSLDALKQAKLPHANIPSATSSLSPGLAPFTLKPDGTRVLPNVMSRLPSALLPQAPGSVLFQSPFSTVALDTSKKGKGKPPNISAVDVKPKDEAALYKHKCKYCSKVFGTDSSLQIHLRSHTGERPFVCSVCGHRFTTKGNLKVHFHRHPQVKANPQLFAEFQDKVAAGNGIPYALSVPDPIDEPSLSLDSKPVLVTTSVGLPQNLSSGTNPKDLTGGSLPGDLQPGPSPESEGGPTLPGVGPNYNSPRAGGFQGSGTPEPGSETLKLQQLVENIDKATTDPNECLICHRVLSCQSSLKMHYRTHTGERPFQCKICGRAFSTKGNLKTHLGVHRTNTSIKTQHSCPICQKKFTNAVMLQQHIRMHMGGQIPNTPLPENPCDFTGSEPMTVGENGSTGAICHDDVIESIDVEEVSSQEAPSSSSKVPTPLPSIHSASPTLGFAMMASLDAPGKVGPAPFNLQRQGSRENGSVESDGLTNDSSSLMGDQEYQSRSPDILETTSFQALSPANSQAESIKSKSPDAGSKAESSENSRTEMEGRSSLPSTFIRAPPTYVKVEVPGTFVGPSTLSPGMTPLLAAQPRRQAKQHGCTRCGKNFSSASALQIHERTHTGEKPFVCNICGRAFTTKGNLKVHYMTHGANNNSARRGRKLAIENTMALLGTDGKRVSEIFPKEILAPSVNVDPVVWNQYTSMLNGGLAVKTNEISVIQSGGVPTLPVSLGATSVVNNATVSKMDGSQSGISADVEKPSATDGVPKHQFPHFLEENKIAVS
Setting: 8-mer, flanks averaged, mean of replicates
Strand	E-score
AGAGTACC	-0.0002
AGGCGGTA	-0.224
AAAAACAT	0.294
ATAGGTTC	0.187
CGGCGGAC	-0.341
AGTGATGC	-0.0371
AAGCGGGC	-0.349
GAGGCACC	-0.363
GCGGAATA	0.105
AAGCCCAA	0.00407
TGTGAACA	0.00871
GCACATCC	0.00275
AACAACTA	0.154
AGCGAAAC	-0.0165
AGGATAGA	0.125
CATGTTGC	-0.0305
CCAGACCA	-0.0934

Study 3 — method: RNA Bind-n-Seq; form: RNA; sample: in vitro; concentration: 365 nM; relative to: no-protein control; reading: higher = stronger binding
Target: RNA binding protein fox-1 homolog 2, RRM domain, GST-SBP tag (RBFOX2, Homo sapiens, UniProt O43251-10, residues 100-194)
Setting: natural RNA segment, single round, ends assumed
All sequences stand within: GGGAGUUCUACAGUCCGACGAUC … UGGAAUUCUCGGGUGCCAA
Construct (chain): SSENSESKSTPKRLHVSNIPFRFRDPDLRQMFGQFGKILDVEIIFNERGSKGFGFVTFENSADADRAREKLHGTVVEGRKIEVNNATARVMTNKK
Strand	RBNS enrichment (R)
UUGAGAAAUGUGAACAUGCUGUGGGGCUGAGCCUCUGCUAUAUCACCGUGAGCUGUAGGAUCAGCUGGCUGGCUGGGUUGGUGAGUGCCUACCUUGAGGUCUCAUGAAAG	0.491
AUUCAUUUGACUCAGCUGAUUGUGUCACAUCUUUUAAAUACUGGUAAAUAUGGAUAUACCAAGUAUUUAAUGACUAAUGCACAUAGAAAUUAAUAUUAAUACAGUGAUCU	0.464
CAGCAUGCUGUGCCGGCACAUCGUGGAGUCCUAGAAACUCUCUAGUCCCUGCGGCUGUUCCCCUCCUCUGCUCUCUCCCUGGAGAGGACUGCCAGCUCUUAAGAAACAUU	0.999
UGCCCACCCCGGCUGCUCUUGACACUUCCAUUGUGUGUGGGAACGUUUCUUCUGGAGAAUUGGAACAUGUGUGGCCCCAAGCUCAACAGAAACCAGUUGUUCCCAAUCUG	0.581
UGUGCAUGUAGAACACAAGAAGACCCUUUUCUUCUGGAUCCUCUGCUAGCUACCAUCUAAACUGUCCCAUUUUGACCCCUUUCUCCCCAUUAAGCCCUCUACGCUUGGCC	1.26
AAAAAUGAUAUAGACGACAGCACUGGCUCUGUGAAGGUGGCAUCUUUCUGGGCAGGCAGGCCAUGGGGCAUGGAGGAGGGUGCAAAGAUAUGGGUUGCUGUCUUCUGGCC	1.41
GAAGACCAGGGGGAGUCAGGUGGUAUGACAGGGCCGAAGGGCAACAAAAUCUCCAUUUCCUUGUGCCUGGCACUGUCUCGAGCCUAAGCUAUUUUAAAGAUGUUUUAAAC	0.632
UGUACCAGCAGCCCUGCAUACAGGGCCCUGUGAGCCCCCCUGCAGUCCUGUGAGGCCCCUGAAGCUCUGUGAGGCCCCUGAAGCUCUGUGAACCCCCUGCAGCCCUGUGA	0.286
GAGCUUGAGCACCAUGACAUAGGCCUCGACCAUGAUGCAGAAUUGGCUCCAGCCUAUGCCGUCCUGAAGAGCAUUAUCCAGGCCGGAUGCAGAGUGGCGAUAUAUUUAUC	3.69
GUAAUUUUAAGGGGCCAAAGCUUUCCCUGAAGCAACCAAAGAUAUAUCCAAGUGCUUCCUCCAAGUCAACAUGUAUUUCCUCUCCCCAUUUUCAGGCCCUGUGGGGCUCC	0.729
AUAUGUAAUUUGUAUUGUUGUAUAGUUUUAUUGAUUACACUGAUUUAUUCUACCCUAUUUUAUAAUGCAGGACUUUUGUAAUGUUGUUUAAAUGAGGAAAAAUUUCUGUC	0.343
GGGAGAAUUAGCUAGUAGCAAUGUGCCUUGAUGAAGAUUUCCUGCAGGCAGCAAAACACCAAAUCACAACGCUUUGCUUCUCGACAUCAUGGGCCAGGUCCUCAGUUUCU	0.31

Study 4 — method: protein-binding microarray; form: double-stranded DNA, one strand shown; sample: in vitro; concentration: 2540 nM top; setting: 60-bp whole probe; together with: salmon DNA 0.4 mg/ml; relative to: random background probes; reading: higher = stronger binding; all sequences stand within: GCCTAGCAC … GTCTTGATTCGCTTGACGCTGCTG
Target: Interferon regulatory factor 3, full length, phosphomimetic (IRF3, Homo sapiens, UniProt Q14653, residues 1-427, S386D/S396D/S398D/S402D/T404D/S405D)
Residues (chain): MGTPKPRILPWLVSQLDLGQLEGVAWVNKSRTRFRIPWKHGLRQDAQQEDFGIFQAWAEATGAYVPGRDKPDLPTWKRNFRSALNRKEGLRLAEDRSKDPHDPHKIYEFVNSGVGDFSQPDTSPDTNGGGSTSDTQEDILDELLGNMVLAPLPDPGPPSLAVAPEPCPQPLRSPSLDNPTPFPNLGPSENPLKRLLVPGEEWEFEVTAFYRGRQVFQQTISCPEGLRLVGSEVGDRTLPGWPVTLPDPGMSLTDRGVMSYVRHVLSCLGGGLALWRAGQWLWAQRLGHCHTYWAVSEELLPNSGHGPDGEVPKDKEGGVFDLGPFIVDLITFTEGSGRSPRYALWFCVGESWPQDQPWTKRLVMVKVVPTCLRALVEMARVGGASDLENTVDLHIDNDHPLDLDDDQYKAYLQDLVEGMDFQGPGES
Strand	fitted relative affinity [z-score]
TTAGGTTTCGGGTATCCGTTAGTGCTA	4.54
GACGGTATCGACTATCGTGACGTGCTA	0.482
GATGATATCAGTCTCGAGACGTGCTAG	0.946
TTAGGTTTCCTCTCCCTTTAGTGCTAG	3.98
TTGGGTTTCGGTTTCGGTTAGTGCTAG	10.6
GACGTACTGGACTTTCGGGACGTGCTA	0.205
GACGGTTCCCTCTTCCTGACGTGCTAG	3.55
TAAGAACTGAGTCTCGATTAGTGCTAG	-0.56
TTTGGCTTTCCTTTATGTCCGTGCTAG	3.39
TTTGGACTGCTTTTCCTTTAGTGCTAG	0.969
TCATGGCTCCCTATAAAACTGTGCTAG	-0.00604
TCACATCTCTGCTCCTTACTGTGCTAG	1.31
TTAGGTTCCCGTTTCGGTTAGTGCTAG	5.91
TCAAATTTCCCACTTTCACTGTGCTAG	2.52
GACGGTATCGGTTTCGGGCCGTGCTAG	6.57
GACGATATCAGTATCGTGACGTGCTAG	1.14
TTAGATTTCGGGAGTGGATTAGTGCTA	0.524
TTAGAACTGAGTTTCTATTAGTGCTAG	0.772
GACGAAATCAGTATCGAGACGTGCTAG	0.998
TCAGATTTCAGTTTTCTACTGTGCTAG	3.37
GACGGTTTTGGTCTCGGGACGTGCTAG	3.09
GACGATATCAGTATCGGGACGTGCTAG	1.87
GACGGTCTGGGTATCGGGACGTGCTAG	-0.0843
TTAGATATCAGACTGGCTTAGTGCTAG	0.05
ACAAGTTTTTATTTTCTGAAGTGCTAG	2.65

Study 5 — method: protein binding microarray; form: double-stranded DNA, one strand shown; sample: in vitro; concentration: not given; relative to: not given; reading: higher = stronger binding
Target: Histone acetyltransferase KAT6A, winged helix 1, GST fusion (KAT6A, Homo sapiens, UniProt Q92794, residues 1-85)
Setting: 8-mer, flanks averaged, mean of 2 arrays, mostly near background
Target sequence (chain): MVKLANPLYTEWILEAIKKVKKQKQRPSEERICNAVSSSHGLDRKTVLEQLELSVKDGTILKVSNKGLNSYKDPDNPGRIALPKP
Strand	E-score
TCGACCCA	-0.237
TCCACTAA	-0.137
AGAGGGCA	-0.226
AAGCCTGA	-0.0513
CAAGCAGA	-0.121
GCCTTTAA	0.0782
AGTTTGTC	-0.162
ATCGTAGG	-0.0127
ATAAGCAC	0.0423
AAGGCGAA	0.0104
ATACACAG	-0.0564
GAAACCCC	0.124
TGATCGCA	0.0798
CGATGAAG	-0.0475
CAGCTGCC	0.065
CCTAGAGG	-0.0343
ACGTCTAT	-0.196
CACCAATA	-0.233
AAATCAGA	-0.231
CCCTGCGA	-0.108

For quick reference, copied from above (study 5):
Strand	E-score
AAGCCTGA	-0.0513
CAAGCAGA	-0.121
GCCTTTAA	0.0782
AGTTTGTC	-0.162
ATCGTAGG	-0.0127
ATAAGCAC	0.0423
AAGGCGAA	0.0104
ATACACAG	-0.0564
GAAACCCC	0.124
TGATCGCA	0.0798
CGATGAAG	-0.0475
CAGCTGCC	0.065
CCTAGAGG	-0.0343
ACGTCTAT	-0.196
CACCAATA	-0.233
AAATCAGA	-0.231
